Measurements of several laboratories.
Numbered parts are unrelated; each lists some results of a single study.

Study 1
Target: Interferon regulatory factor 5, full length, phosphomimetic (IRF5, Homo sapiens, UniProt Q13568-2, residues 1-514, S451D/S453D/S456D/S462D)
Method: protein-binding microarray
Form: double-stranded DNA, one strand shown
Matrix: in vitro
Concentration: 940 nM top
Setting: 60-bp whole probe
With: salmon DNA 0.4 mg/ml
Baseline: random background probes
Reading: higher = stronger binding
Measurement: fitted relative affinity
Shared flanks, not repeated: GCCTAGCAC … GTCTTGATTCGCTTGACGCTGCTG
ACTCGTGACCCTCTCAAAGGGTGCTAG: -0.466 z-score
GACGGACTGGGGACTAGGGACGTGCTA: -0.261 z-score
GACGGTTTCGGTTTCGGGACGTGCTAG: 14.8 z-score
TTAGATCTCAGTTTCGATGAGTGCTAG: 6.51 z-score
TTAGGACTGGACTATCGTTTAGTGCTA: -0.315 z-score
GACCGTTTCGGACTGGGGACGTGCTAG: 1.85 z-score
GACGGACTGGGTATCGTGACGTGCTAG: -0.269 z-score
CCTTTTTTTTTTTTTCTGATGTGCTAG: 1.54 z-score

Study 2
Target: RNA binding protein fox-1 homolog 2, RRM domain, GST-SBP tag (RBFOX2, Homo sapiens, UniProt O43251-10, residues 100-194)
Method: RNA Bind-n-Seq
Form: RNA
Matrix: in vitro
Concentration: 365 nM
Setting: natural RNA segment, single round, ends assumed
Baseline: no-protein control
Reading: higher = stronger binding
Measurement: RBNS enrichment (R)
Shared flanks, not repeated: GGGAGUUCUACAGUCCGACGAUC … UGGAAUUCUCGGGUGCCAA
Residues (chain): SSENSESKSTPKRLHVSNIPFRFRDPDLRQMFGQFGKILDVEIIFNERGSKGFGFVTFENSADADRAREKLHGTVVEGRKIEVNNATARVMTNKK
CCACUCAACUUUCAGUUGGCUCUGUGUCAGUUUUCCAUUCAGUGUUAACUACUUGUUACUGCCAUGCUGCUUGCCCUCCCUUGAAGUGUCUAUAAGCUCAUCACAGCCUA: 0.367
AAAGCCUUGCAAGACACUCCCUUGCUCAUUUGCCAUAUUUAGAUGUCUUAGUGGAGUCAGAGCCCUGUUUGGUAUGUGUUUUUCAUGCUAAGUCUAAAUUGUCUUUUCAU: 1.21
ACUCAAAUUUAAACCAUGCUUUCUUGUAGUACUGAUUGAAACUUACACGUUUUAUUCUACUCAUAGUGAGCUUAUUCUUAUUUUGGAUUGAUUUUCCAAAACCACAGCUU: 0.256
UUCUGAGCCUUGAAAUUGAGGAGGUUAAAAGGAAGAGCCUUAAGAUUUUGAUUUAUGUCAAAUCCUAAUUCUAUCAUUCAGUCUUGUUUGGAGUUCUGAACCCAUGAUGU: 0.595
ACCAUGACGCUAGUGCAGUGACAGCCUGUGUCACGGCCGUGUUGAGGGGUCCCAGCAGAGGCCUGUGUCGUGUAACCCAGGGACUACAAGUGUCAGUGUGGGUAUCAACC: 1.65
UGUCACGCGGCAGCUUCAGGGAGCUCGCAUUCUCUUGUGUUCGUGUUGCCCUCGUGCCCAUCAAGUGCAGUCGGGACCUCCCAGGACAAGCACGAGGCCUCAGGUCGGCC: 1.69
UUGGCCAAAUAAAUUACUUUCCUUGAAUAUCCAGGAAUCUUUUAGUCUAAAGCAAUGAGGAGUUAUCACCUCAUCCUCAAACUCCAACAAGAUCUAUGCCUUAGUGUUGU: 0.323
UCUACAAUUAAAAGAAUGUUUUGAUAAUCCAGGGGCUGGUUAGUGAGCCCGCUGGCCUCACUGGGGUGUCAGGGCUGGGCCCAGGGAUUGCUAUUUUCACGUAGGCCCUU: 7.51
ACGUUCUCAGUUGAUAUCUGAGUAUUGGGUGCAUUUGGUGGCUUAAAAGCAAAGCUUCCUAAAAAGAUUUUUCUUGGCAGCUCCAGGUCUAUACAUUUAGGUAAUGAAUG: 0.339

Study 3
Target: Sal-like protein 4, full length isoform A (SALL4, Homo sapiens, UniProt Q9UJQ4, residues 1-1053)
Sequence of UniProt Q9UJQ4 (whole entry, looked up): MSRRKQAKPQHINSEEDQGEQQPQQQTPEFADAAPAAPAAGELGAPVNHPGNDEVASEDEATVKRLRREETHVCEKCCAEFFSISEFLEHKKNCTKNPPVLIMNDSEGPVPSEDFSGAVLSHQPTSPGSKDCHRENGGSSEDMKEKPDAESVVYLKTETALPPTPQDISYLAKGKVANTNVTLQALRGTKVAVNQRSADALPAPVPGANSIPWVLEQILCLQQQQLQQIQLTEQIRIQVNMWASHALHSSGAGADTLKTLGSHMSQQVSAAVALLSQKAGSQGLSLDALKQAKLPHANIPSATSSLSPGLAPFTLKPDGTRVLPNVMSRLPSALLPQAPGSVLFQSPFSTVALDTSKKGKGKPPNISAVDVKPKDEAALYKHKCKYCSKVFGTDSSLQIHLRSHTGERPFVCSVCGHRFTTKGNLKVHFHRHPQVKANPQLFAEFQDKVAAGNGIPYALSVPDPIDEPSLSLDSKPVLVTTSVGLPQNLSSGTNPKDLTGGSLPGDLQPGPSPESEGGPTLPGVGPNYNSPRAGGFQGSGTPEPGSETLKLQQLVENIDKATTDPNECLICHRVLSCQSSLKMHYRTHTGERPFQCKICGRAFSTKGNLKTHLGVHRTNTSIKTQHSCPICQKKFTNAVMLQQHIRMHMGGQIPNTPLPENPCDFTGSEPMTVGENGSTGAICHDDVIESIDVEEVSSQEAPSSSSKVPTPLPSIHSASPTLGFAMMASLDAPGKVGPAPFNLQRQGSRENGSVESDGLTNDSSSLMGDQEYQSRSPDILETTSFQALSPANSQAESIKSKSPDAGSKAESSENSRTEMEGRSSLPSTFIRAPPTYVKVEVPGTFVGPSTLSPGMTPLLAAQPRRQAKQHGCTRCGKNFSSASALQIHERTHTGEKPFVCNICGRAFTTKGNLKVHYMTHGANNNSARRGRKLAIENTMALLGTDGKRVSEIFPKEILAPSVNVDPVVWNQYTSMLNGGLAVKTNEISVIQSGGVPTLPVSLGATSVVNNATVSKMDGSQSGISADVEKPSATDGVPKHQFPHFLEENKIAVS
Method: universal PBM
Form: double-stranded DNA, one strand shown
Matrix: in vitro
Concentration: 600 nM
Setting: 8-mer, flanks averaged, mean of replicates
Reading: higher = stronger binding
Measurement: E-score
CTTCCTAC: -0.159
CAACGGGG: -0.195
CGGACCAA: -0.096
GGAACACC: -0.231
ATTCCGCA: -0.0598
ATACTCTC: 0.227
CTTTCGCC: 0.0149

Single results of other studies
PhoQ, residues 284 288 289 292 302 303 ALASRC — fold induction (PhoP, residues 12 14 15 18 19 LHHVQ (Escherichia coli, UniProt P23836); Sort-seq, item: YFP reporter; E. coli; PhoQ-PhoP variant library, with: 10 µM Mg2+; baseline: high Mg2+ state, higher = stronger signaling): 2.26

Some of these lines once more (study 1):
GACGGACTGGGGACTAGGGACGTGCTA: -0.261 z-score
GACGGTTTCGGTTTCGGGACGTGCTAG: 14.8 z-score
TTAGATCTCAGTTTCGATGAGTGCTAG: 6.51 z-score
TTAGGACTGGACTATCGTTTAGTGCTA: -0.315 z-score
